Results collected from several papers.
Every numbered part comes from another study and shows a few of its results, in no order.
Sequence of UniProt P54753 (whole entry, looked up): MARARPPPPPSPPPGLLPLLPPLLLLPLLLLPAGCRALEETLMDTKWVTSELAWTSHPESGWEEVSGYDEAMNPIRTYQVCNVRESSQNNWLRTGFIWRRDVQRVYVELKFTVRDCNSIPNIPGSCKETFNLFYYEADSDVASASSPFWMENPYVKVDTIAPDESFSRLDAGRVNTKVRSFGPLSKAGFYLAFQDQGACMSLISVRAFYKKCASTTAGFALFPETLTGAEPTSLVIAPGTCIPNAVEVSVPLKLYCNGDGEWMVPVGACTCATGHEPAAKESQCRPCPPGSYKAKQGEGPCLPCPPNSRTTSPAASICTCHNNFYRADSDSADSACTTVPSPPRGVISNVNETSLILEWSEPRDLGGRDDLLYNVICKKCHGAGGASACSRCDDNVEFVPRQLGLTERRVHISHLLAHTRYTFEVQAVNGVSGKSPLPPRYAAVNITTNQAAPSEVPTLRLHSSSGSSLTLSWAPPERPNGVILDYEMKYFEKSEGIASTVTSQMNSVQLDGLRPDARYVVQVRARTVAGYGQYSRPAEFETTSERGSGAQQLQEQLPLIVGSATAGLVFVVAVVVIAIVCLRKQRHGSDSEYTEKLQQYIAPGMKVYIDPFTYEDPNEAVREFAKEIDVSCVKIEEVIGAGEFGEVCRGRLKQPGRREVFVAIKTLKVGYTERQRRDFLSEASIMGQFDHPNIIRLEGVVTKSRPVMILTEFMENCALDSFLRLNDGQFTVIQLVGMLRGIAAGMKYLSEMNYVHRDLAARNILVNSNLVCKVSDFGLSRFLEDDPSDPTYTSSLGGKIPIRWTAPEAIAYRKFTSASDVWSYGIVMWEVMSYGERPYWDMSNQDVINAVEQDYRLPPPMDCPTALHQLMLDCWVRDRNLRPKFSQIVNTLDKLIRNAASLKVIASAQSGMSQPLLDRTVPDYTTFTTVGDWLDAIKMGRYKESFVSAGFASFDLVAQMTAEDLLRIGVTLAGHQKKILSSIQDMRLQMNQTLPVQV
Sequence of UniProt P35916 (whole entry, looked up): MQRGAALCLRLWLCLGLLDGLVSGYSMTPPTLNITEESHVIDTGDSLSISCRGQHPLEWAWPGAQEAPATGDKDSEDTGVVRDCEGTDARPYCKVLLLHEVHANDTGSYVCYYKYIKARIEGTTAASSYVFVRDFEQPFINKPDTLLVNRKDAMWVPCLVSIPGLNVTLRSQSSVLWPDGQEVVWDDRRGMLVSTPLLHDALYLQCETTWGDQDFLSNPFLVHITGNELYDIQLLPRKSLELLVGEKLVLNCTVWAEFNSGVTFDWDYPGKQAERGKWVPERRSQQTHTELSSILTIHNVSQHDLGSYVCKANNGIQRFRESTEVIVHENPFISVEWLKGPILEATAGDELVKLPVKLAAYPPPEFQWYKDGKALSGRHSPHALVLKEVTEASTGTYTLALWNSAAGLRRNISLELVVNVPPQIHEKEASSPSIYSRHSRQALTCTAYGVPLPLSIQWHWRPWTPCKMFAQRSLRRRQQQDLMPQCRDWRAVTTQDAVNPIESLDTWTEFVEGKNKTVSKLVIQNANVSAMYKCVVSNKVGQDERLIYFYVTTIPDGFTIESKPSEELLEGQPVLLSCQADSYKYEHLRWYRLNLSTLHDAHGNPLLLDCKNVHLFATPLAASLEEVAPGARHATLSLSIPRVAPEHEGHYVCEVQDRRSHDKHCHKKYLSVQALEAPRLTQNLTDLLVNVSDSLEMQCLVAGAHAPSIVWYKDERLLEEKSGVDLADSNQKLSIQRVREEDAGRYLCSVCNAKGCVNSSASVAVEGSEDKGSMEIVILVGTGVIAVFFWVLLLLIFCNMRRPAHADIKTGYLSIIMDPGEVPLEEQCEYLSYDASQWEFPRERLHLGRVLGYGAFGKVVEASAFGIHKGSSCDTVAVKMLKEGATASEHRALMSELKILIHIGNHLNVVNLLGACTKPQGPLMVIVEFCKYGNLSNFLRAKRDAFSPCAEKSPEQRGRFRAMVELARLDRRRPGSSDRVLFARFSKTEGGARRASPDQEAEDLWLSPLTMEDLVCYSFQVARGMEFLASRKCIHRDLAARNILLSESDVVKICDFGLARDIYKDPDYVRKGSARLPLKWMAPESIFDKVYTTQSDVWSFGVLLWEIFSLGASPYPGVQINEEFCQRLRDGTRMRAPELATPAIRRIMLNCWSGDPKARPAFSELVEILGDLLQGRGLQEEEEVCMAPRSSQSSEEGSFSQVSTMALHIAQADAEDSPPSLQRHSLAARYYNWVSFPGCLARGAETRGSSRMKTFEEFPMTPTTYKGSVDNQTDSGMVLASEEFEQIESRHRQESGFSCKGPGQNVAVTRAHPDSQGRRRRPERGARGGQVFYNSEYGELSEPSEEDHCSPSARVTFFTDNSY
Sequence of UniProt P42336 (whole entry, unmodified, looked up): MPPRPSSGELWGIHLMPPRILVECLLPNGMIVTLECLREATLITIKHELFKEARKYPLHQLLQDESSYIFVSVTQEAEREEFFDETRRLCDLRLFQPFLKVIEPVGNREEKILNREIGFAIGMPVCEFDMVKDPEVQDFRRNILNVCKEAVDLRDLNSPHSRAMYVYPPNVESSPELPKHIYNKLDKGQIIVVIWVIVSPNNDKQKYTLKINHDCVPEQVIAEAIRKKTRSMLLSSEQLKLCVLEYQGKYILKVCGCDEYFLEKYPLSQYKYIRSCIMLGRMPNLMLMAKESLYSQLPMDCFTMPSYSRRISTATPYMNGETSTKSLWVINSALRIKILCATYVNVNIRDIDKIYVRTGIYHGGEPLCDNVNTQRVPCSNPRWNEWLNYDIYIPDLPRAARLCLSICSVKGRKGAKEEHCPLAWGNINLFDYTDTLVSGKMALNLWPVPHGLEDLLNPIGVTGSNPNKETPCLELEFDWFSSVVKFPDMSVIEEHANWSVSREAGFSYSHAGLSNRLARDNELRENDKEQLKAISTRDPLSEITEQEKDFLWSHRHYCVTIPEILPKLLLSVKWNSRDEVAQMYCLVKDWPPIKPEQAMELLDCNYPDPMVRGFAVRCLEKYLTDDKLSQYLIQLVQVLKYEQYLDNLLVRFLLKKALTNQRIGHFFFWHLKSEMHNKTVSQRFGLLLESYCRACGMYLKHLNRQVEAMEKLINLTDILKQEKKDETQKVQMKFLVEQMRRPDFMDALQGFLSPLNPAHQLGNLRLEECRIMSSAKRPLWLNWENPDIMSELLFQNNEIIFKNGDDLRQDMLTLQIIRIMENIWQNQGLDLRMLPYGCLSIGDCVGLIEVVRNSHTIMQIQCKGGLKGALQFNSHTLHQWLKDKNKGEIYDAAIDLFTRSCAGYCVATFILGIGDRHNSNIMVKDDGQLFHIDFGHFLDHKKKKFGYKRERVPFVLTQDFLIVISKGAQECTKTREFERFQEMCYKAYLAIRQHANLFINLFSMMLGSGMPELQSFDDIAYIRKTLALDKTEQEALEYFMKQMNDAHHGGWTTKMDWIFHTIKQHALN

Sample 1 — effect on: enzyme activity; mode: inhibitor; concentration: 10 µM
Target: Calcium/calmodulin-dependent protein kinase type II subunit alpha (CAMK2A, Homo sapiens, UniProt Q9UQM7)
Sequence of UniProt Q9UQM7 (whole entry, looked up): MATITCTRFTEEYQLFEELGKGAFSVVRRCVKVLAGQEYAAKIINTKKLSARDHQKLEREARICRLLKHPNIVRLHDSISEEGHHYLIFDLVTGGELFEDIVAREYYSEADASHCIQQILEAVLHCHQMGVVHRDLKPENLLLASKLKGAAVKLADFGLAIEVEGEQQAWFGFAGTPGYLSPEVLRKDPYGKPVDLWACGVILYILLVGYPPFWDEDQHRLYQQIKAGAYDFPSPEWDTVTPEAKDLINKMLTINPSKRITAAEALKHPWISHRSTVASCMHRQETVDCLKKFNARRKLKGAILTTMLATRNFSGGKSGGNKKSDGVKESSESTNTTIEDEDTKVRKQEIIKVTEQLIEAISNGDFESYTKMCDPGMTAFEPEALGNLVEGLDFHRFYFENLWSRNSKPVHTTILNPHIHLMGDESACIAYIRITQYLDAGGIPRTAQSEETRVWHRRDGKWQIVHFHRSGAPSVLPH
SMILES | inhibition [%]
O=C(O)CCSC[C@H]1O[C@@H]2O[C@H]3[C@H](O)[C@@H](O)[C@@H](O[C@H]4[C@H](O)[C@@H](O)[C@@H](O[C@H]5[C@H](O)[C@@H](O)[C@@H](O[C@H]6[C@H](O)[C@@H](O)[C@@H](O[C@H]7[C@H](O)[C@@H](O)[C@@H](O[C@H]8[C@H](O)[C@@H](O)[C@@H](O[C@H]9[C@H](O)[C@@H](O)[C@@H](O[C@H]1[C@H](O)[C@H]2O)O[C@@H]9CSCCC(=O)O)O[C@@H]8CSCCC(=O)O)O[C@@H]7CSCCC(=O)O)O[C@@H]6CSCCC(=O)O)O[C@@H]5CSCCC(=O)O)O[C@@H]4CSCCC(=O)O)O[C@@H]3CSCCC(=O)O | -6
COC(=S)NCc1ccc(O[C@@H]2O[C@@H](C)[C@H](O)[C@@H](O)[C@H]2O)cc1 | -6
CO[C@@H]1[C@@H](OC)[C@H](C)[C@@](O)(CC(=O)O)O[C@H]1[C@H](C)[C@H]1O[C@@]2(CC[C@@](C)([C@H]3CC[C@@](C)([C@@H]4O[C@@H]([C@H]5O[C@](C)(O)[C@H](C)C[C@@H]5C)C[C@@H]4O[C@@H]4C[C@H](OC)[C@@H](OC)[C@H](C)O4)O3)O2)C[C@H](O)[C@H]1C | -11

Sample 2 — concentration: 1 µM
SMILES: CCOCCn1cc(C(=O)Nc2ccc(-n3nc(-c4cccnc4)cc3C(F)(F)F)cn2)ccc1=O
target | assay | remaining binding [%]
RIPK2 (Homo sapiens, UniProt O43353) | cell-free assay, competition with immobilised ligand | 71
PNCK (Homo sapiens, UniProt Q6P2M8) | cell-free assay, competition with immobilised ligand | 79
PRKACB (Homo sapiens, UniProt P22694) | cell-free assay, competition with immobilised ligand | 100
DAPK1 (Homo sapiens, UniProt P53355) | cell-free assay, competition with immobilised ligand | 100
LIM domain kinase 1 (LIMK1, Homo sapiens, UniProt P53667) | cell-free assay, competition with immobilised ligand | 84
ANKK1 (Homo sapiens, UniProt Q8NFD2) | cell-free assay, competition with immobilised ligand | 57
EPHB3 (Homo sapiens, UniProt P54753) | cell-free assay, competition with immobilised ligand | 89
RET (Homo sapiens, UniProt P07949, V804M) | cell-free assay, competition with immobilised ligand | 100
CHEK1 (Homo sapiens, UniProt O14757) | cell-free assay, competition with immobilised ligand | 76
Tyrosine-protein kinase JAK1, JH2 (JAK1, Homo sapiens, UniProt P23458) | cell-free assay, competition with immobilised ligand | 37
PIK3CA (Homo sapiens, UniProt P42336, E545A) | cell-free assay, competition with immobilised ligand | 100
FLT4 (Homo sapiens, UniProt P35916) | cell-free assay, competition with immobilised ligand | 92
Tyrosine-protein kinase ABL1, phosphorylated (ABL1, Homo sapiens, UniProt P00519, F317I) | binding | 91
CSNK1G2 (Homo sapiens, UniProt P78368) | cell-free assay, competition with immobilised ligand | 100
CSNK2A1 (Homo sapiens, UniProt P68400) | cell-free assay, competition with immobilised ligand | 70

Sample 3 — species: human; medium: microsomes or S9; concentration: 2 µM; time: 0.5 h
SMILES | remaining compound [%]
COc1cc(OC)cc(C2CC(=O)c3cc(OC)cc(OC)c32)c1 (stereo not shown) | 32.3
C(=N\n1cnnc1)/c1cn(-c2cccs2)nc1-c1ccccc1 | 40.5
O=C(c1ccc2cccnn12)N1C[C@@H](Cc2ccccc2)[C@H](O)C1 | 42.1
CC(C)Nc1nc(NCCO)nc(N2CCC(N3CCOC(C)C3)CC2)n1 (stereo not shown) | 95.4
CC1(C)CC2(CCCN(CC(O)(c3ccccc3)c3ccccc3)C2)CCO1 (stereo not shown) | 0.00552
Cn1c(=O)c2c(nc(C(=O)N3CC[C@H](NC(=O)OC(C)(C)C)C3)n2Cc2ccccc2)n(C)c1=O | 6.67
COc1ccc(Cc2nc3c4c(ncn3n2)OC(C)=C(C(C)=O)C4c2ccccc2)cc1OC (stereo not shown) | 22.8
CCCn1nc(C)c(-c2cncn2Cc2cccc(OC(C)C)c2)c1C | 4.63
CC1(C(=O)NC2CCCC2)Cn2c(cc3ccsc32)C(=O)N1c1ccc2c(c1)OCCO2 (stereo not shown) | 32.9
CC1(C(=O)NC2CCCCCC2)Cn2c(cc3occc32)C(=O)N1Cc1ccco1 (stereo not shown) | 0.0675
COc1ccccc1Nc1nc2nccc(-c3ccc4c(c3)OCO4)c2c(=O)[nH]1 | 56.1
Cc1cccc(NC(=O)c2oc3ccccc3c2NC(=O)c2cc(-c3ccc4c(c3)OCCO4)on2)c1 | 51.8
COc1cc(C#N)cc(Br)c1OCCCn1ccnc1 | 77.1
Cn1cc(Br)c(C(=O)NCCCN2CCCC2=O)n1 | > 99
O=C(C1CC(=O)N(c2n[nH]c3ccccc23)C1)N1CCC(c2noc3cc(F)ccc23)CC1 (stereo not shown) | 71.1
O=C1CC(C(=O)Nc2ccccc2-c2ccccc2)c2ccccc21 (stereo not shown) | 12.1
COc1ccc(C(=O)C2=CN(c3ccc(C#N)cc3)c3cc(F)ccc3S2(=O)=O)cc1 | > 100
COc1cc(=O)[nH]cc1C(=O)N1CCC(C)(C)C(c2ccccc2)C1 (stereo not shown) | 83.5
CCC1(c2ccc(NC(=O)c3c(OC)cccc3OC)cc2)CCC(=O)N=C1O (stereo not shown) | 72.4
COc1cc(=O)[nH]cc1C(=O)N1CCN(c2cncc(F)c2)CC1 | 66.4
c1ccc2c(c1)CC[C@H](Cn1ccnc1-c1cc3n(n1)CCCNC3)O2 | 69.9

Sample 4 — effect on: enzyme activity; mode: inhibitor; concentration: 0.5 µM; reference: control
Target: Serine/threonine-protein kinase ULK1 (ULK1, Homo sapiens, UniProt O75385)
Sequence of UniProt O75385 (whole entry, looked up): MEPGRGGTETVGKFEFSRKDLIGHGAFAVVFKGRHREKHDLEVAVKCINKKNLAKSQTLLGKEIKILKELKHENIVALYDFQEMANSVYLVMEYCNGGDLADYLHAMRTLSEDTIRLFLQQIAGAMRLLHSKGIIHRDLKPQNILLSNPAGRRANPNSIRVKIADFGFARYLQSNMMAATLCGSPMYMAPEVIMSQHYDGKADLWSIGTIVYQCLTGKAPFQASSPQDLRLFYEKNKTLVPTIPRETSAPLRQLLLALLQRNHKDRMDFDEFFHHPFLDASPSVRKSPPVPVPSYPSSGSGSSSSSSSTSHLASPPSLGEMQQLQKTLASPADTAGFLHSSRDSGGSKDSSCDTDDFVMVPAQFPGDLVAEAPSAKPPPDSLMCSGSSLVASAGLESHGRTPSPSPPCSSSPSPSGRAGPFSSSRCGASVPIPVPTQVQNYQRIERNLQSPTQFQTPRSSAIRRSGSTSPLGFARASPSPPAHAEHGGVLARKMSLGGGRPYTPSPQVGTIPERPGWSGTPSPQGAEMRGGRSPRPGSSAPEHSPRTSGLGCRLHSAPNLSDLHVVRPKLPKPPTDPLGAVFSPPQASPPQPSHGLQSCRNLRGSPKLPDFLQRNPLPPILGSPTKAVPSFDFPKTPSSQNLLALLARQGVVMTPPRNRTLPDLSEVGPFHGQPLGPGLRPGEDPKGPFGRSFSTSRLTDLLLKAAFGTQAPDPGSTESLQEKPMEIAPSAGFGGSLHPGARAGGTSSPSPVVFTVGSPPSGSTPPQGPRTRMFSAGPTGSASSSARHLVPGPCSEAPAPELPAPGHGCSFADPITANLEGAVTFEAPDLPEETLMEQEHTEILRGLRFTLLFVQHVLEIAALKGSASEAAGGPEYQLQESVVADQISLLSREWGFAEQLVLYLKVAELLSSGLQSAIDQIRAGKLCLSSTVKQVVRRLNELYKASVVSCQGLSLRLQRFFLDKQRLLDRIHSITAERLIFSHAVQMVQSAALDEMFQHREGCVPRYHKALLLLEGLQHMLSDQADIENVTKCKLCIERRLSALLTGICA
SMILES | remaining activity
Cc1ccc(S(=O)(=O)/C=C/C#N)cc1 | 102%
Cc1cc(Nc2cc(N3CCN(C)CC3)nc(Sc3ccc(NC(=O)C4CC4)cc3)n2)[nH]n1 | 99.2%
COc1ccc2c(c1)c(C1=C(c3c[nH]c4ccccc34)C(=O)NC1=O)cn2CCCN(C)C | 99%
O=C1Nc2ccc(Br)cc2/C1=C/c1cc2c([nH]1)CCCC2 | 69.4%
CN1CCN(c2ccc3nc(-c4c(N)c5c(F)cccc5[nH]c4=O)[nH]c3c2)CC1 | 20.4%
Oc1cccc(-c2nc(N3CCOCC3)c3oc4ncccc4c3n2)c1 | 113%
O=C1NC(=O)c2c1c1c3ccccc3[nH]c1n1cncc21 | 97.2%
O=Nc1c(-c2c(O)[nH]c3cc(Br)ccc23)[nH]c2ccccc12 | 95.3%
O=C1Nc2ccccc2/C1=C\c1c(Cl)[nH]c2ccccc12 | 106%
c1ccc(-c2n[nH]c3c2oc2ccccc23)cc1 | 124%
N#Cc1cnc2cnc(NCc3cccnc3)cc2c1Nc1ccc(F)c(Cl)c1 | 76.1%
O=C1Cc2c([nH]c3ccc(Br)cc23)-c2ccccc2N1 | 93.8%
CN(C)S(=O)(=O)c1ccc2c(c1)/C(=C/c1cc3c([nH]1)CCCC3)C(=O)N2 | 6.13%
O=c1cc(N2CCOCC2)oc2c(-c3ccccc3)cccc12 | 102%
CCCCc1c(-c2ccc(OC)cc2)[nH]c2nccnc12 | 87.9%
CCCNC(=O)Nc1ccc(Oc2ncnc3cc(OC)c(OC)cc23)cc1Cl | 83.2%
c1ccc2c(-c3ccncc3)c[nH]c2c1 | 83.8%
COc1cccc(-c2cc(=O)c3ccccc3o2)c1N | 104%
O=C(c1cc2cc(O)ccc2[nH]1)c1cc2cc(O)ccc2[nH]1 | 60.1%

For quick reference, copied from above (sample 4):
SMILES | remaining activity
O=Nc1c(-c2c(O)[nH]c3cc(Br)ccc23)[nH]c2ccccc12 | 95.3%
O=C1Cc2c([nH]c3ccc(Br)cc23)-c2ccccc2N1 | 93.8%
CCCCc1c(-c2ccc(OC)cc2)[nH]c2nccnc12 | 87.9%
